Published values gathered from unrelated publications.
Each numbered part is a random draw from the data of one study; scales do not carry over between parts.

Sample 1 — organism: SARS-CoV-2; effect on: cytopathic effect; cells: Vero E6; tested at: 10 µM
Structure (SMILES) | inhibition [%]
Nc1nc(-c2ccc(Cl)c(Cl)c2)c(-c2ccncc2)s1 | -0.9
COc1cccc2c1C(=O)c1c(O)c3c(c(O)c1C2=O)C[C@@](O)(/C(CO)=N/NC(=O)CCCCCN1C(=O)C=CC1=O)C[C@@H]3O[C@H]1C[C@H](N)[C@H](O)[C@H](C)O1 | -7.5
N[C@@H](C(=O)N[C@@H]1C(=O)N2C(C(=O)O)=C(Cl)CS[C@H]12)c1ccccc1 | 6.9

Sample 2 — method: protein-binding microarray; molecule type: hairpin DNA; medium: in vitro; tested at: not given; relative to: not given; direction: higher = stronger binding
Target: Interferon regulatory factor 1, DNA-binding domain (IRF1, Homo sapiens, UniProt P10914, residues 1-114)
Notes: whole hairpin DNA, median over replicate spots
Residues (chain): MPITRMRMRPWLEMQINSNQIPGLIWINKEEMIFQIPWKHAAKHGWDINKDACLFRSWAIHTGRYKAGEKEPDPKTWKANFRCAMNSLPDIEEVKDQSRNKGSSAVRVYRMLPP
Strand | median fluorescence
GAGGCCCGAACGCGAAACGCCTCCTGGCGTTTCGCGTTCGGGCCTCACAC (5mC at 11 35) | 551 a.u.
GAGGCCCAAAAGTGAAACGCCTCCTGGCGTTTCACTTTTGGGCCTCACAC | 1270 a.u.
GAGGCCCCGAAGTGAAACGCCTCCTGGCGTTTCACTTCGGGGCCTCACAC | 628 a.u.
GAGGCCCGAAAGCGACACGCCTCCTGGCGTGTCGCTTTCGGGCCTCACAC (5mC at 16) | 520 a.u.
GAGGCCCGAACGCGAAACGCCTCCTGGCGTTTCGCGTTCGGGCCTCACAC (5mC at 11) | 544 a.u.
GAGGCCCGAACGCGAAACGCCTCCTGGCGTTTCGCGTTCGGGCCTCACAC (5mC at 35) | 532 a.u.

Sample 3 — method: RNA Bind-n-Seq; molecule type: RNA; medium: in vitro; tested at: 200 nM; notes: whole 134-nt RNA, ends assumed; added: 150 mM LiCl; relative to: input library; direction: higher = stronger binding; library: 7-deaza-guanosine replaces G
Target: Fragile X messenger ribonucleoprotein 1, C-terminal low-complexity region (Fmr1, Mus musculus, UniProt P35922)
Strand | log2 enrichment
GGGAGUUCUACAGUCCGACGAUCUUGCAUUUCGAACGCGUUCUAAGAUGCCCCUGAAAGAUGUUCCCCUGGGCCAAUUAGAGGCAGAGCUCCAAGCUCCAGACAUCACUCCAGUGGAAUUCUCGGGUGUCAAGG | 1.05
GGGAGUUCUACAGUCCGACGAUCCUCAAGUCCUGUGCUACACAUCGUAUGUACCGAAUCGGGGUUGGUUGGUUGGGGAAAGUAUUAUGUUACGCCGUUCGGAUCUGCACUUCCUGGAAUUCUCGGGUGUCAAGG | -0.615
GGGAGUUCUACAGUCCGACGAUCAAAAGACAACACGCACCCACACAGACACAGAGGGAAGGGGUUGGGAUGGGGACAGGGUGCACAGCAGGGCGGGGUAGGACCCCAGCCCCUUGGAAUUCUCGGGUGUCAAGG | -0.0287
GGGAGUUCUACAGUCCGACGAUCUAACUUUAGAGGAGGAUCUGAUGGAUAUGGCAGUGGACGUGGAUUUGGGGAUGGCUAUAAUGGGUAUGGAGGAGGACCUGCAGGUGGCAAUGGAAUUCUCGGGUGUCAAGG | 0.206
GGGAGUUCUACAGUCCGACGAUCCCUGUGCUACACAUCGUAUGUACCGAAUCGGCCCCCCCGGGCCCCCCCGGGCCCCCCCGGGAAAGUAUUAUGUUACGCCGUUCGGAUCUGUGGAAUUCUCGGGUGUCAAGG | -0.142
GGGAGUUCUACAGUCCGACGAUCAAGUCCUGUGCUACACAUCGUAUGUACCGAAUCGGGGCCCGGGGCCCGGCCCGGGGAAAGUAUUAUGUUACGCCGUUCGGAUCUGCACUUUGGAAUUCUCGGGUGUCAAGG | -1.68
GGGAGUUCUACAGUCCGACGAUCUCCUGUGCUACACAUCGUAUGUACCGAAUCGGCCCCCCGGCCCCCCGGGCCCCCCGGGGAAAGUAUUAUGUUACGCCGUUCGGAUCUGCAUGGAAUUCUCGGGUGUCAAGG | 0.776
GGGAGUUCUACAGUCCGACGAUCUCCUGUGCUACACAUCGUAUGUACCGAAUCGGGGAAAAAGGGGAAAGGGGUUUUUGGGGAAAGUAUUAUGUUACGCCGUUCGGAUCUGCAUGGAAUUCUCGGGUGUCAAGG | 0.245

Sample 4 — effect on: enzyme activity; mode: inhibitor; tested at: 20 µM
Target: Replicase polyprotein 1ab, polymerase (rep, Severe acute respiratory syndrome coronavirus 2, UniProt P0DTD1)
SMILES | inhibition [%]
CCOC(=O)[C@H](CCc1ccccc1)N[C@@H](C)C(=O)N1Cc2ccccc2C[C@H]1C(=O)O | 2.09
Cn1c(=O)c2c(ncn2CCO)n(C)c1=O | -1.7
CCOC(=O)C1=C(C)NC(C)=C(C(=O)OC)C1c1cccc([N+](=O)[O-])c1 (stereo not shown) | -1.66
Cc1ccc(CCCO)c(NCc2ccc3nc(NCCCN4CCOCC4)n(Cc4nc(C)ccc4O)c3c2)c1 | -3.26
FC(F)(F)c1ccc(CNc2ccc(Cc3c[nH]c4ncc(Cl)cc34)cn2)cn1 | -4.86
CCNC(=O)[C@H]1O[C@@H](n2cnc3c(N)nc(NCCc4ccc(CCC(=O)O)cc4)nc32)[C@H](O)[C@@H]1O | 2.52
CCCCCCOC(=O)NC(=N)c1ccc(NCc2nc3cc(C(=O)N(CCC(=O)OCC)c4ccccn4)ccc3n2C)cc1 | -2.74
COc1ccc(C(Cl)=C(c2ccc(OC)cc2)c2ccc(OC)cc2)cc1 | 0.53
CCN(c1cc(C#CCN2CCOCC2)cc(C(=O)NCc2c(C)cc(C)[nH]c2=O)c1C)[C@H]1CC[C@H](N(C)CCOC)CC1 | -2.98
Cc1ccc(-c2c(-c3nn(C)c4ncnc(N5CC[C@H](N6CCCCC6)C5)c34)cnn2C)cc1 | 14.6
COc1ccc(OC)c(CN(C(C)=O)c2cc(F)ccc2Oc2ccccc2)c1 | -3.08
COc1cccc(OC)c1-c1cc(C(=O)NC2(C(=O)O)C3CC4CC(C3)CC2C4)nn1-c1ccnc2cc(Cl)ccc12 (stereo not shown) | 8.82
CSc1nc2ccc3nc(NC(=O)C(c4ccccc4)c4ccccc4)sc3c2s1 | -16.2
CC(C)(C)C(=O)C(=Nc1ccc(Cl)cc1)NNc1ccc(Cl)cc1 | -5.19
COc1ccc(CCNCc2ccc(OCc3ccc(Cl)nc3)c(OC)c2)cc1OC | -0.15
COc1ncc(-c2ccc3c(Nc4cc(Oc5cc(F)cc(F)c5)cc(C(=O)O)c4)c(S(=O)(=O)NC4CC4)cnc3c2)c(OC)n1 | 65.8
N[C@H](C(=O)O)c1ccc(O)cc1 | 6.54
CN1C2C=C(c3sccc3Br)CC1CC2 (stereo not shown) | 11.8
O=C(O)C1CCCN(CCC=C(c2ccccc2)c2ccccc2)C1 (stereo not shown) | 36.1
CC(C)C[C@H](NC(=O)[C@H](CCc1ccccc1)NC(=O)CN1CCOCC1)C(=O)N[C@@H](Cc1ccccc1)C(=O)N[C@@H](CC(C)C)C(=O)[C@@]1(C)CO1 | -0.18
c1ccc(CCCN2CCN(CCOC(c3ccccc3)c3ccccc3)CC2)cc1 | 3.54
COCCNC(=O)Cn1cnc([N+](=O)[O-])n1 | 0.41
Nc1ncnc2c1ncn2[C@@H]1O[C@H](C(=O)N2CCN(CC(=O)Nc3cccc4c3CNC4=O)CC2)[C@@H](O)[C@H]1O | 1.52
CCOc1nc2cccc(C(=O)OCc3oc(=O)oc3C)c2n1Cc1ccc(-c2ccccc2-c2noc(=O)[nH]2)cc1 | 7.15
CN1[C@H]2C[C@H](OC(=O)[C@H](CO)c3ccccc3)C[C@@H]1[C@@H](O)C2 (racemic) | 2.78

Sample 5 — cell line: HEK-293T; effect on: pseudovirus infection; method: FDA-approved drug library screen; organism: VSV pseudotyped with SARS-CoV-2 spike; tested at: 10 µM; time: 16 h; relative to: vehicle-treated
SMILES | GFP-positive cells [%]
CC(C)(C)NC[C@H](O)COc1nsnc1N1CCOCC1 | 123
C=CC[C@@H]1/C=C(\C)C[C@H](C)C[C@H](OC)[C@H]2O[C@@](O)(C(=O)C(=O)N3CCCC[C@H]3C(=O)O[C@H](/C(C)=C/[C@@H]3CC[C@@H](O)[C@H](OC)C3)[C@H](C)[C@@H](O)CC1=O)[C@H](C)C[C@@H]2OC | 83.7
CC(COc1ccccc1)N(CCCl)Cc1ccccc1 (stereo not shown) | 89.3
C[C@H](CCC(=O)O)[C@H]1CC[C@H]2[C@@H]3[C@H](O)C[C@@H]4C[C@H](O)CC[C@]4(C)[C@H]3CC[C@]12C | 97.1
CCCCN1CCCC[C@H]1C(=O)Nc1c(C)cccc1C | 84.2

Sample 6 — method: RNA Bind-n-Seq; molecule type: RNA; medium: in vitro; tested at: 20 nM; notes: 6-mer, flanks averaged, single round; added: 150 mM LiCl; relative to: input library; direction: higher = stronger binding
Target: TAR DNA-binding protein 43, full length, His tag (TARDBP, Homo sapiens, UniProt Q13148, residues 1-414)
Strand | 6-mer enrichment (R)
CUAGCC | 0.895
CUCAGU | 0.898
GUGUGC | 1.77
CAAUUA | 0.947
UGUGGU | 1.66
UAGCAU | 0.882
UAUGCC | 1
UUAUAA | 1.1

Some of these lines once more (sample 6):
Strand | 6-mer enrichment (R)
CUCAGU | 0.898
UGUGGU | 1.66
GUGUGC | 1.77
CAAUUA | 0.947
UAGCAU | 0.882
